Assay results gathered from unrelated publications.
Protocols differ between the studies behind these lines. Numbers after ± are the reported error.
TDP1: Tyrosyl-DNA phosphodiesterase 1 (TDP1, Homo sapiens, UniProt Q9NUW8)
UniProt Q9NUW8, sequence (whole entry, looked up): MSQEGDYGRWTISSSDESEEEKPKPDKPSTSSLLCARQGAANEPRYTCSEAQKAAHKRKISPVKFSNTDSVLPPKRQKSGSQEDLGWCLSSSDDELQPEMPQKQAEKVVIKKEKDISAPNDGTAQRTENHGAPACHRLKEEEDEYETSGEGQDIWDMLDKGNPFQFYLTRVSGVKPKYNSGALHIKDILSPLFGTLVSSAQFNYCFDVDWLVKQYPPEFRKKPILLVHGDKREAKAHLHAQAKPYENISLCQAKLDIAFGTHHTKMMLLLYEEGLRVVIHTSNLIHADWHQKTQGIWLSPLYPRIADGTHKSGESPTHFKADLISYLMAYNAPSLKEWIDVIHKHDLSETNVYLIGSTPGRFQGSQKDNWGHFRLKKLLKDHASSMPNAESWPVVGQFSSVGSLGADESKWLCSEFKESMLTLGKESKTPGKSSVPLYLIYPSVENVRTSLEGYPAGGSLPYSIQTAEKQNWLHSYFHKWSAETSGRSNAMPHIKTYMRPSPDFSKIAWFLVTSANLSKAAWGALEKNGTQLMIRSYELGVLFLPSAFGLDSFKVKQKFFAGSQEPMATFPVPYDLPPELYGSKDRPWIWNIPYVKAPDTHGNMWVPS

C=C(NC(=O)c1csc(-c2cccnc2)n1)C(=O)NC(=C)C(=O)OC  EC50 (H-MESO-1; cell viability, crystal violet; 6 h exposure, 48 h total): 6.2 µM
CC(=O)N[C@@H](CC[S+](C)[Ru-4]123([S+](C)CC[C@H](NC(C)=O)C(=O)O)[n+]4ccc5ccccc5c4Nc4cccc([n+]41)-c1cccc([n+]12)Nc1c2ccccc2cc[n+]13)C(=O)[O-].F[P-](F)(F)(F)(F)F (stereo partly drawn)  EC50 (MRC-5; photocytotoxicity, SRB; 6 h, together with: green light): < 1 µM
O=c1[nH]nc(OCCCc2ccc(Cl)cc2)c(NCc2cccnc2)c1Br  EC50 (HEK-293T ATF4-FLuc reporter; reporter gene, activator, measured: ATF4-FLuc; 8 h): 6.2 µM
C=C(NC(=O)C(=C)NC(=O)c1csc(C2=N[C@@H]3c4csc(n4)[C@H]4NC(=O)c5csc(n5)[C@H]([C@](C)(O)[C@@H](C)O)NC(=O)[C@H]5CSC(=N5)/C(=C/C)NC(=O)[C@H]([C@@H](C)O)NC(=O)c5csc(n5)[C@]3(CC2)NC(=O)[C@H](C)NC(=O)C(=C)NC(=O)[C@H](C)NC(=O)[C@H]([C@@H](C)CC)N[C@@H]2C=Cc3c([C@H](C)O)cc(nc3[C@H]2O)C(=O)O[C@@H]4C)n1)C(N)=O  EC50 (H-MESO-1; cell viability, crystal violet; 3 h exposure, 48 h total): 4.6 µM
Cc1ncsc1-c1ccc(C(C)NC(=O)C2CC(O)CN2C(=O)C(NC(=O)CCCCCCCCCCN2CCCC(Nc3ncc(Cl)c(Nc4ccccc4S(=O)(=O)C(C)C)n3)C2)C(C)(C)C)cc1 (stereo not drawn)  log2 fold change (22Rv1; RNA-seq, measured: ZNF862 mRNA; concentration not given; relative to: DMSO): -2.38
CCc1cnc(N2CCC(c3nc(COc4ccc(-n5cnnn5)cc4)cs3)CC2)nc1  EC50 (HEK-293T ATF4-FLuc reporter; reporter gene, activator, measured: ATF4-FLuc): 3.6 µM
N#Cc1[nH]nnc1-c1cccc(Oc2ccccc2)c1  EC50 (CHO cells expressing NaCT; TCA cycle acceleration, activator, [14C]citric acid metabolism): 0.33 µM
Cc1ccncc1.[Cl-].[Cl-].[Ru+2].c1cc(-c2ccc3cccnc3n2)nc(-c2ccc3cccnc3n2)c1.c1ccc2cc3nc4c5cccnc5c5ncccc5c4nc3cc2c1  EC50 (SK-MEL-28; cell viability; dark): 79.6 ± 2.5 µM
C=CC(=O)N1[C@H](c2ccc3c(c2)OCO3)c2[nH]c3ccccc3c2C[C@@H]1C(=O)NC1CC1  EC50 (rat DRG neurons; neurite degeneration; 48 h, together with: vincristine 40 nM): 0.282 µM
O=C(O)c1ccc(Nc2c(-c3ccccc3)nc3ccc(CON=Cc4cc(Cl)nc(-c5ccccc5)c4)cn23)cc1  inhibition (TDP1; enzyme activity, inhibitor; 100 µM, unpurified compound): 29.9%
Cc1nc(NCCOCCOCCNc2ncc(C(=O)NC3=NN(c4ccc(Cl)c(Cl)c4)CC3)c(C)n2)ncc1C(=O)NC1=NN(c2ccc(Cl)c(Cl)c2)CC1  EC50 (BV-173; cell growth or viability, ATP luminescence; 72 h): 0.149 µM
N=C(N)NCCC[C@@H](NC(=O)[C@H](Cc1ccccc1)NC(=O)[C@H](Cc1ccccc1)NC(=O)[C@@H](CCCNC(=N)N)NC(=O)CCCC[C@@H]1SC[C@@H]2NC(=O)N[C@@H]21)C(N)=O  EC50 (MDBK; cell survival, AlamarBlue; 5 days, serum-free medium): ~0.1 µM
C=C(NC(=O)c1csc(-c2ccc(NC(=O)CCCCCBr)cc2)n1)C(=O)NC(=C)C(=O)OC  EC50 (H-MESO-1; cell viability, crystal violet; 3 h exposure, 48 h total): 1.4 µM
CN1CC[C@@H](COc2cnc(C#N)cc2-c2ccn3nc(NC(=O)C4CC4)cc3c2)C1  EC50 (wild-type littermate mouse BMDC; IL-10 release, inducer; 4 h, together with: LPS): 0.62 µM
O=C(O)c1ccc(Nc2c(-c3ccccc3)nc3ccc(CON=Cc4cccc(NC(=O)C(F)(F)F)c4)cn23)cc1  inhibition (TDP1; enzyme activity, inhibitor; 100 µM, unpurified compound): 39.9%
